{"data": "Assay results collected from several papers", "note": "Every numbered part comes from another study and shows a few of its results, in no order. Positions count from the first letter of the parent shown.", "UniProt P08588, sequence (whole entry, looked up)": "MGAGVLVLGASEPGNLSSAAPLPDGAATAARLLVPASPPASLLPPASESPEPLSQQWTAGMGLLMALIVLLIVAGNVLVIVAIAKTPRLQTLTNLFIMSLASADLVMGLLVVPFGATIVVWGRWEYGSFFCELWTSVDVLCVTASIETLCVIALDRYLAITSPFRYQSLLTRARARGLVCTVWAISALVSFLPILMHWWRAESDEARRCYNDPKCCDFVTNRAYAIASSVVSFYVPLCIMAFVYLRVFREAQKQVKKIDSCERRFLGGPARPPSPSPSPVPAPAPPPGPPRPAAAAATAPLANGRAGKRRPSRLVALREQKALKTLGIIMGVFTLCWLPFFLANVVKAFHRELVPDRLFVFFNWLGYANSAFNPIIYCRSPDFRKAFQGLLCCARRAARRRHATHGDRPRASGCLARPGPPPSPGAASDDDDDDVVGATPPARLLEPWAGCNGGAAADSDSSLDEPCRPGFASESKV"}
{"data": "Block 1", "target": "CCND3, cyclin fold, Cln2 fusion (human)", "technique": "yeast growth competition, sequencing", "matrix": "yeast", "setting": "weak parent motif", "relative to": "not given", "direction": "higher = stronger binding", "starting sequence": "viral docking peptide; YKVKRRLVFGADD; partner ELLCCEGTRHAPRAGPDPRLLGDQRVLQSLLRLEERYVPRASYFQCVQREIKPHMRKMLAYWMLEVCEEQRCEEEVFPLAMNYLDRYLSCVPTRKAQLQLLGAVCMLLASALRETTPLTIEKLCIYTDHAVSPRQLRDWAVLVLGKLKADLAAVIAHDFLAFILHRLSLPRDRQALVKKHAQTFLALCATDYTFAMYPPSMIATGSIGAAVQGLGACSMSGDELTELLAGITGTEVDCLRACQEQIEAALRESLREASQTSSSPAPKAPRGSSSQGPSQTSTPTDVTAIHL"}
{"Variant": "R6M", "normalised enrichment score": 0.375}
{"Variant": "K2S", "normalised enrichment score": -0.0801}
{"Variant": "R6D", "normalised enrichment score": 0.345}
{"Variant": "D12R", "normalised enrichment score": 0.0342}
{"data": "Mixed results", "HLA class I histocompatibility antigen, B alpha chain allele B*39:01": "HLA class I histocompatibility antigen, B alpha chain, allele B*39:01 (Homo sapiens, UniProt P01889)"}
{"Substance": "FHLRSRFAF", "tested on": "HLA class I histocompatibility antigen, B alpha chain allele B*39:01", "assay": "peptide-MHC binding", "test system": "peptide", "conditions": "concentration not given", "quantity": "binding", "result": "active"}
{"Substance": "N[C@H](C(=O)O)[C@H](O)c1ccc(O)c(O)c1", "tested on": "ADRB1 (Homo sapiens, UniProt P08588)", "assay": "agonist", "quantity": "Emax", "result": "102%"}
{"Substance": "LNTVATLY", "tested on": "HLA class I histocompatibility antigen, B alpha chain allele B*39:01", "assay": "peptide-MHC binding", "test system": "peptide", "conditions": "concentration not given", "quantity": "binding", "result": "inactive"}
{"Substance": "CN1CCN(C(=O)O[C@H]2c3nccnc3C(=O)N2c2ccc(Cl)cn2)CC1", "tested on": "Sarcocystis neurona", "assay": "parasite activity", "conditions": "10 µM, 96 h", "quantity": "activity class", "result": "inactive"}
{"note": "Excerpt of the above (block 1):"}
{"Variant": "R6M", "normalised enrichment score": 0.375}
